Published values gathered from unrelated publications.
Organism: Staphylococcus aureus

With `CNC(CC(C)C)C(=O)NC1C(=O)NC(CC(N)=O)C(=O)NC2C(=O)NC3C(=O)NC(C(=O)NC(C(=O)NCCCNC(=N)N)c4cc(O)cc(O)c4-c4cc3ccc4O)C(O)c3ccc(c(Cl)c3)Oc3cc2cc(c3OC2OC(CO)C(O)C(O)C2OC2CC(C)(N)C(O)C(C)O2)Oc2ccc(cc2Cl)C1O` (stereo not shown) the MIC was 0.12 mg/L (MRSA ATCC 43300).
For `CC1CCN(CCCN2/C(=C/c3cc(/C=C/c4c[nH]c5ccccc45)[n+](C)c4ccccc34)Sc3ccccc32)CC1`, the MIC was 16 mg/L (microbial growth, broth dilution; ATCC43300 MRSA).
With `CCc1ccccc1NC(=O)CSc1nc2ccccc2c(=O)n1-c1ccc(S(N)(=O)=O)cc1` the MIC was 15.6 mg/L (methicillin-resistant; 24 h, 37 °C).
For `C=C(NC(=O)C(=C)NC(=O)c1csc(C2=NC3c4csc(n4)C4NC(=O)c5csc(n5)C(C(C)(O)C(C)O)NC(=O)C5CSC(=N5)C(=CC)NC(=O)C(C(C)O)NC(=O)c5csc(n5)C3(CC2)NC(=O)C(C)NC(=O)C(=C)NC(=O)C(Cc2ccc(O)cc2)NC(=O)C(C(C)CC)NC2C=Cc3c(C(C)O)cc(nc3C2O)C(=O)OC4C)n1)C(N)=O` (stereo not shown), the MIC was 0.22 mg/L (broth microdilution; ATCC 10537 MRSA; 18 h, 37 °C).
`CCCCCCCCCc1nc2cc(OC)c(OC)cc2c(=O)n1N` has an MIC of greater than 100 µM (broth microdilution; RN6390B).
With `CCCCCCCCCCCCCCN1C(=O)/C(=N\NC(=N)N)c2cc(C)ccc21` the MIC was greater than 192 mg/L (microbial growth, broth dilution; 18 h).
`N#Cc1ccc2cccc(O)c2n1` gave an MIC of greater than 1500 µM (microbial growth, agar dilution; ATCC25923).
The MIC of `CC1OCC2OC(OC3C(N)CC(N)C(O)C3OC3OC(CO)C(OC4OC(CN)C(O)C(O)C4N)C3O)C(N)C(O)C2O1` (stereo not shown) is reported as 32 to 64 mg/L (broth microdilution; MRSA isolate AG 044).
For `S=c1n(CN2CCN(c3ccccc3)CC2)nc(C23CC4CC(CC(C4)C2)C3)n1-c1ccccc1`, the MIC was 8 mg/L (two-fold dilution; IFO 3060; 24 h, 36 °C).
`CCCCCCCCCc1nc2ccccc2c(=O)n1OC` has an MIC of greater than 100 µM (broth microdilution; RN6390B).
With `Oc1c(Br)cc(Br)c2nc3cc(Cl)ccc3nc12` the MIC was 0.08 µM (broth microdilution; MRSA 1707; 16 h, 37 °C).
The MIC of `CC[P+](CC)(CC)[Au-][S][C@@H]1O[C@H](COC(C)=O)[C@@H](O[C@H]2O[C@H](COC(C)=O)[C@@H](OC(C)=O)[C@H](OC(C)=O)[C@H]2OC(C)=O)[C@H](OC(C)=O)[C@H]1OC(C)=O` is reported as 0.008 µM (broth microdilution; JE2 (USA300)).
For `CNC(CC(C)C)C(=O)NC1C(=O)NC(CC(N)=O)C(=O)NC2C(=O)NC3C(=O)NC(C(=O)NC(C(=O)O)c4cc(O)cc(O)c4-c4cc3ccc4O)C(O)c3ccc(c(Cl)c3)Oc3cc2cc(c3OC2OC(CO)C(O)C(O)C2OC2CC(C)(NC(=O)CCCCCC[N+](C)(C)C)C(O)C(C)O2)Oc2ccc(cc2Cl)C1O` (stereo not shown), the MIC was 64 mg/L (agar dilution; MRSA clinical isolate MRSA4).
With `Cc1csc(NCc2cc(N(C)C)c3c(c2O)C(=O)C2=C(O)[C@]4(O)C(=O)C(C(N)=O)=C(O)[C@@H](N(C)C)[C@@H]4C[C@@H]2C3)n1` the MIC was 16 mg/L (MRSA 5, Tet M ribosome protection).
`CNC(CC(C)C)C(=O)NC1C(=O)NC(CC(N)=O)C(=O)NC2C(=O)NC3C(=O)NC(C(=O)NC(C(=O)O)c4cc(O)cc(O)c4-c4cc3ccc4O)C(O)c3ccc(c(Cl)c3)Oc3cc2cc(c3OC2OC(CO)C(O)C(O)C2OC2CC(C)(NC(=O)CCCCCCCC[N+](C)(C)C)C(O)C(C)O2)Oc2ccc(cc2Cl)C1O` (stereo not shown) gave an MIC of 64 mg/L (agar dilution; MRSA clinical isolate MRSA4).
For `CC1C=CC=CC(C)C2C=CC3CC(C)(O)C(OCc4ccccc4)C(C)C3C2C(=O)C(Cl)(Cl)C(=O)C(C)C(=O)O1` (stereo not shown), the MIC was 0.4 mg/L (microbial growth, broth dilution; NEWMAN).
With `CN(C)c1cc(CNCC2CCCCC2)c(O)c2c1C[C@H]1C[C@H]3[C@H](N(C)C)C(O)=C(C(N)=O)C(=O)[C@@]3(O)C(O)=C1C2=O` the MIC was 1 mg/L (RN4250, Tet K efflux).
With `CCCCO[C@H]1[C@H](O)[C@@H](N)[C@@H](O[C@H]2[C@H](O[C@@H]3O[C@H](CO)[C@@H](O[C@H]4O[C@@H](CN)[C@@H](O)[C@H](O)[C@H]4N)[C@H]3O)[C@@H](O)[C@H](N)C[C@@H]2N)O[C@@H]1CO` the MIC was 16 to 32 mg/L (broth microdilution; MRSA isolate AG 039).
For `COCCNCc1cc(N(C)C)c2c(c1O)C(=O)C1=C(O)[C@]3(O)C(=O)C(C(N)=O)=C(O)[C@@H](N(C)C)[C@@H]3C[C@@H]1C2`, the MIC was 0.5 mg/L (microbial growth, broth dilution).
The MIC of `CCCCN(CCCC)CC(O)COc1c2ccoc2c(OC)c2oc(CC)cc(=O)c12` (stereo not shown) is reported as 256 mg/L (microbial growth, broth dilution; NCTC4163; 19 h).
With `CNC(CC(C)C)C(=O)NC1C(=O)NC(CC(N)=O)C(=O)NC2C(=O)NC3C(=O)NC(C(=O)NC(C(=O)O)c4cc(O)cc(O)c4-c4cc3ccc4O)C(O)c3ccc(c(Cl)c3)Oc3cc2cc(c3OC2OC(CO)C(O)C(O)C2OC2CC(C)(NC(=O)CCCCCC[n+]3ccccc3)C(O)C(C)O2)Oc2ccc(cc2Cl)C1O` (stereo not shown) the MIC was 64 mg/L (agar dilution; MRSA clinical isolate MRSA3).
`CC(C)CNCc1cc(N(C)C)c2c(c1O)C(=O)C1=C(O)[C@]3(O)C(=O)C(C(N)=O)=C(O)[C@@H](N(C)C)[C@@H]3C[C@@H]1C2` has an MIC of 1 mg/L (MRSA 5, Tet M ribosome protection).
`O=C1c2ccccc2C(=O)c2c1ccc1c2C(C(=O)Nc2ccccc2)C(=O)C1c1ccccc1` (stereo not shown) has an MIC of 64 mg/L (microbial growth).
`O=C(c1ccc[nH]1)c1ccccc1O` gave an MIC of greater than 64 mg/L (microbial growth, broth dilution; NCTC8325; 20 h).
`CN(C)c1cc(CNCCC(C)(C)C)c(O)c2c1C[C@H]1C[C@H]3[C@H](N(C)C)C(O)=C(C(N)=O)C(=O)[C@@]3(O)C(O)=C1C2=O` gave an MIC of 1 mg/L (MRSA 5, Tet M ribosome protection).
`CCN(CC)c1ccc(C=NNC(=O)c2ccccn2)c(O)c1` gave an MIC of 8 mg/L (broth microdilution; ATCC 29213; 16 to 24 h).
The MIC of `COc1cc(Cc2cnc(N)nc2N)cc(/C=C/C(=O)N2N=Cc3ccccc3C2c2ccccc2)c1OC` (stereo not shown) is reported as 0.125 to 0.25 mg/L (microbial growth, broth dilution; ATCC29213; pH 7).
With `C[Si](C)(C)Cc1ccc(C2COC(=O)N2/N=C/c2ccc([N+](=O)[O-])o2)cc1` (stereo not shown) the MIC was greater than 50 mg/L (microbial growth, broth dilution; ATCC29213; 18 h).
With `[2H]C([2H])([2H])Oc1ccc(-c2cc(C)nc(C)c2)cc1C(C)C#Cc1c(N)nc(N)nc1CC` (racemic) the MIC was 0.312 mg/L (broth microdilution; ATCC 43300; 18 h, 37 °C).
`CC1CCN(Cc2cc(N(C)C)c3c(c2O)C(=O)C2=C(O)[C@]4(O)C(=O)C(C(N)=O)=C(O)[C@@H](N(C)C)[C@@H]4C[C@@H]2C3)CC1` gave an MIC of 0.25 mg/L (microbial growth, broth dilution).
With `CC(=O)[O][Ag]=[c]1n(C)ccn1CC([O-])c1ccccc1.[Na+]` (stereo not shown) the MIC was 5 mg/L (broth dilution; ATCC 23235; 18 h, 37 °C).

A few entries again:
With `Oc1c(Br)cc(Br)c2nc3cc(Cl)ccc3nc12` the MIC was 0.08 µM (broth microdilution; MRSA 1707; 16 h, 37 °C).
The MIC of `CC[P+](CC)(CC)[Au-][S][C@@H]1O[C@H](COC(C)=O)[C@@H](O[C@H]2O[C@H](COC(C)=O)[C@@H](OC(C)=O)[C@H](OC(C)=O)[C@H]2OC(C)=O)[C@H](OC(C)=O)[C@H]1OC(C)=O` is reported as 0.008 µM (broth microdilution; JE2 (USA300)).
For `CNC(CC(C)C)C(=O)NC1C(=O)NC(CC(N)=O)C(=O)NC2C(=O)NC3C(=O)NC(C(=O)NC(C(=O)O)c4cc(O)cc(O)c4-c4cc3ccc4O)C(O)c3ccc(c(Cl)c3)Oc3cc2cc(c3OC2OC(CO)C(O)C(O)C2OC2CC(C)(NC(=O)CCCCCC[N+](C)(C)C)C(O)C(C)O2)Oc2ccc(cc2Cl)C1O` (stereo not shown), the MIC was 64 mg/L (agar dilution; MRSA clinical isolate MRSA4).
